Assay results gathered from unrelated publications.
Parts stem from different laboratories: compare values within a part only. Positions count from the first letter of the parent shown.

Series 1
Target: CCND2, cyclin fold, Cln2 fusion (human)
Technique: yeast growth competition, sequencing
Matrix: yeast
Notes: weak parent motif
Baseline: not given
Reading: higher = stronger binding
Endpoint: normalised enrichment score
Starting sequence: CDKN1B docking peptide (human); PSACRNLFGPVDH; partner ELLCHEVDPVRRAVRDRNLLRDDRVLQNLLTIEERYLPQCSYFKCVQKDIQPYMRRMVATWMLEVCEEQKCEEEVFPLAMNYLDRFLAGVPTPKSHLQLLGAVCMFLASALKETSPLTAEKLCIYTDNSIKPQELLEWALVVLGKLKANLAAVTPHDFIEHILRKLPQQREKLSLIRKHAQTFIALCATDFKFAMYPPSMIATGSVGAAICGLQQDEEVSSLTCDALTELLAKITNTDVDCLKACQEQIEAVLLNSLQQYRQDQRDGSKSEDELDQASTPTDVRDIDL
PSACRNVFGPVDH [L7V]: 0.206
PSACGNLFGPVDH [R5G]: -0.0841
PSACRNLFGPVDQ [H13Q]: 0.267
HSACRNLFGPVDH [P1H]: 0.251
PSACRNLFGPMDH [V11M]: 0.374
PSACRNLFGPRDH [V11R]: -0.0291
QSACRNLFGPVDH [P1Q]: 0.409
PSMCRNLFGPVDH [A3M]: 0.26

Series 2
Target: Interferon regulatory factor 7, full length, phosphomimetic (IRF7, Homo sapiens, UniProt Q92985, residues 1-503, S471D/S472D/S475D/S476D/S477D/S483D/S484D/S487D)
Technique: protein-binding microarray
Molecule type: double-stranded DNA, one strand shown
Matrix: in vitro
Concentration: 2200 nM top
Notes: 60-bp whole probe
With: salmon DNA 0.4 mg/ml
Baseline: random background probes
Reading: higher = stronger binding
Endpoint: fitted relative affinity
Shared flanks, not repeated: GCCTAGCAC … GTGCTAGGTCTTGATTCGCTTGACGCTGCTG
Construct (chain): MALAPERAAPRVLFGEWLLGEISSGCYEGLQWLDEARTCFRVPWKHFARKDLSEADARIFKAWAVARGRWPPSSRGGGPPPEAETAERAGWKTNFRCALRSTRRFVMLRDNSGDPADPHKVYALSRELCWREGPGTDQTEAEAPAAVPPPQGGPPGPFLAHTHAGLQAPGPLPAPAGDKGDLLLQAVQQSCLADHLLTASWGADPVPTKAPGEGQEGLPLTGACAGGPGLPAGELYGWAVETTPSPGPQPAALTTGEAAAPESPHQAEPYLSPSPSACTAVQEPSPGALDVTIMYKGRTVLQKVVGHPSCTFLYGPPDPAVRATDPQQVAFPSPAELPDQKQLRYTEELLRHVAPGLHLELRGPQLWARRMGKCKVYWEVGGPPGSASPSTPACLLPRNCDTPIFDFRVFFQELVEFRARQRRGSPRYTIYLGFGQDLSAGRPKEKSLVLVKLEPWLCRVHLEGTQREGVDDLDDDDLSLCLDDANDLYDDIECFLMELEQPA
TTGATAATTTTTTTCTAAGT: 0.00904 z-score
TTAGATATCAGCTTCGATTA: 0.239 z-score
TTAGGTATCCTTATCCTTTA: 0.873 z-score
GTAGGTTCCCTTTTCCTTTA: 3.41 z-score
AGTTAATCCCTCTCAGGCAT: 0.389 z-score
TCACCTCTTTTTTTGGTACT: 1.82 z-score
TCAATTCTCTGCTTCTGACT: 1.47 z-score
TTAGGACCGGGTATCGGTTA: -0.505 z-score

Single results of other studies
P1: PafA, mature enzyme, eGFP fusion (Elizabethkingia meningoseptica, UniProt Q9KJX5); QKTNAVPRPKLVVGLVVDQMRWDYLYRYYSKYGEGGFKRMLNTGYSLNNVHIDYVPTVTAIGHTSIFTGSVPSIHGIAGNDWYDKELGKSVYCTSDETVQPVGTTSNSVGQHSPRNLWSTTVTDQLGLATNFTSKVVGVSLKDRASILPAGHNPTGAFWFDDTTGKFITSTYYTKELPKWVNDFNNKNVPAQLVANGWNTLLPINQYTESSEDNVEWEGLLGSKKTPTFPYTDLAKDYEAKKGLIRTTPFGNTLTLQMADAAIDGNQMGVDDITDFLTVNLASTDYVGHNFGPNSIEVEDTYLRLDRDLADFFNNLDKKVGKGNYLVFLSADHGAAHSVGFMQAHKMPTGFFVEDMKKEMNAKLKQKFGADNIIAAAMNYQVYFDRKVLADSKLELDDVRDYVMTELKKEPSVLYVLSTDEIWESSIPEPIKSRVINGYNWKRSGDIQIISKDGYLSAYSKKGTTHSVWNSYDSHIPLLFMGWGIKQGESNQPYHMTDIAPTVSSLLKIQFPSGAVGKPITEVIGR
EPC1 (Homo sapiens, UniProt Q9H2F5) — cross-linked residues (MDN1 (Homo sapiens, UniProt Q9NU22); cross-linking MS; cell fractions; with: DSSO): K252 to K3370
P1 I273G — oxyanion analog dissociation constant (vanadate, free oxyanion; microfluidic competitive inhibition; in vitro, cell-free expressed; not given, derived from inhibition constants, unchanged parent 676 nM; lower = stronger binding): 898 nM
KLHL41 (Homo sapiens, UniProt O60662) — cross-linked residues (HNRNPAB (Homo sapiens, UniProt Q99729); cross-linking MS; cell fractions; with: DSSO): K31 to Y88
DDX54 (Homo sapiens, UniProt Q8TDD1) — cross-linked residues (NOC3L (Homo sapiens, UniProt Q8WTT2); cross-linking MS; cell fractions; with: DMTMM): K125 to E718
TRMT10C (Homo sapiens, UniProt Q7L0Y3) — interaction screen (HSD17B10 (Homo sapiens, UniProt Q99714); cross-linking MS; hits only): cross-linked

For quick reference, copied from above (single results of other studies):
DDX54 (Homo sapiens, UniProt Q8TDD1) — cross-linked residues (NOC3L (Homo sapiens, UniProt Q8WTT2); cross-linking MS; cell fractions; with: DMTMM): K125 to E718
